Assay results gathered from unrelated publications.
Numbered parts are unrelated; each lists some results of a single study.

Study 1 — method: protein binding microarray; form: double-stranded DNA, one strand shown; sample: in vitro; tested at: not given; reference: not given; reading: higher = stronger binding
Target: Histone acetyltransferase KAT6A, both winged helices, GST fusion (KAT6A, Homo sapiens, UniProt Q92794, residues 1-181)
Setting: 8-mer, flanks averaged, mean of 2 arrays, mostly near background
Construct (chain): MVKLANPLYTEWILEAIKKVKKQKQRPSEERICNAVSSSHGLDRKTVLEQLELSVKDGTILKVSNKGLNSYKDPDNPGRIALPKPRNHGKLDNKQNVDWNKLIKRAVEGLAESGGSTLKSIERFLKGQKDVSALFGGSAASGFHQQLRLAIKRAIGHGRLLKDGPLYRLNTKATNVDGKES
Strand	E-score
TCCGGCCA	0.0671
TAAGTAGA	-0.0698
GCCATCCC	-0.0856
AGTTCAAA	-0.0958
CGTCACAC	0.0212
AACCCCAG	-0.193
AGGTCCAA	-0.0907
AGAGCTAA	-0.262
ACAACTAG	-0.0637
GATCCGGC	0.0783

Study 2 — method: universal PBM; form: double-stranded DNA, one strand shown; sample: in vitro; tested at: 600 nM; reading: higher = stronger binding
Target: Sal-like protein 4, full length isoform A (SALL4, Homo sapiens, UniProt Q9UJQ4, residues 1-1053)
UniProt Q9UJQ4, sequence (whole entry, looked up): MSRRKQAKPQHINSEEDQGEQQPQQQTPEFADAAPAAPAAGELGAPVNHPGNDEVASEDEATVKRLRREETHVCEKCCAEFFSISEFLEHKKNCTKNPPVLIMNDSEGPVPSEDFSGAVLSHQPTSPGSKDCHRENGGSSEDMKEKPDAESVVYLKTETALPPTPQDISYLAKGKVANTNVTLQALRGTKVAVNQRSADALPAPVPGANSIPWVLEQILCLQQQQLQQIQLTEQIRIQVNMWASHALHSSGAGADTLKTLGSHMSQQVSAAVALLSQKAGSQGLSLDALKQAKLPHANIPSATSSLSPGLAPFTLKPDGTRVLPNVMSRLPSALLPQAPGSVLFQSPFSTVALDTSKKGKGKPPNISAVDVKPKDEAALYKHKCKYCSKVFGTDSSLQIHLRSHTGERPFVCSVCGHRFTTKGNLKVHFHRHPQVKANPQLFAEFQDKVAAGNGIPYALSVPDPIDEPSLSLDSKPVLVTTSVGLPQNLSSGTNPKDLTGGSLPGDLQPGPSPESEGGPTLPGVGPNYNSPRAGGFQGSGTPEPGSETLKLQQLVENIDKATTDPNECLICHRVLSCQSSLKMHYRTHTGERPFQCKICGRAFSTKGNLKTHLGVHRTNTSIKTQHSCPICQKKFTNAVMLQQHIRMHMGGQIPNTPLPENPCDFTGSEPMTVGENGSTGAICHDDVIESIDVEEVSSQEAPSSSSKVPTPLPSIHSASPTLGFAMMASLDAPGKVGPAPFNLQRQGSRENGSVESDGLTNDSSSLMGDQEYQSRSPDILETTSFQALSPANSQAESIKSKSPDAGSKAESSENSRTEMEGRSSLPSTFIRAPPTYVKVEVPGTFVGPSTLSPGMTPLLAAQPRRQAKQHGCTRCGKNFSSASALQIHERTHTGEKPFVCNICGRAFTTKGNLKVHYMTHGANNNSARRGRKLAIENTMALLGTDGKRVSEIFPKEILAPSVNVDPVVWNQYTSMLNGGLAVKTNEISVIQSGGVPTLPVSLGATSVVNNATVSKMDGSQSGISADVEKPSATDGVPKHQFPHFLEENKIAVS
Setting: 8-mer, flanks averaged, mean of replicates
Strand	E-score
AAAAGGGG	-0.136
AGGATCGC	-0.182
ATCAGCGA	-0.0341
ACGTATTG	0.0936
CGAGAAGC	-0.0888
AAATAAAC	0.361
CAGTGGAG	-0.127
AGGTGGGC	-0.351

Study 3 — method: aptamer microarray, sandwich; form: DNA with 2'F-ANA; sample: in vitro; tested at: 200 nM; together with: Cy3 exosite-II aptamer, 400 nM; reading: higher = stronger binding; strand: GGTTGGTGTGGTTGG
Target: Prothrombin, mature alpha-thrombin (F2, Homo sapiens, UniProt P00734)
Setting: whole 15-mer aptamer, many near background
Modification	mean fluorescence intensity
2'F-ANA at 4 6 7 9 13 15	130 a.u.
2'F-ANA at 1 3 6 12 13 14	107 a.u.
2'F-ANA at 5 7 8 9 11	83.4 a.u.
2'F-ANA at 1 2 4 5 6 9 12 13 14	55.4 a.u.
2'F-ANA at 1 3 9 10 11 12 14	61.4 a.u.
2'F-ANA at 7 11 13 15	512 a.u.
2'F-ANA at 3 5 7 8 10 11 13 15	62.4 a.u.

Study 4 — method: Sort-seq; measured: YFP reporter; sample: E. coli; setting: PhoQ-PhoP variant library; together with: 10 µM Mg2+; reference: high Mg2+ state; reading: higher = stronger signaling
Molecule: PhoQ, residues 284 288 289 292 302 303 GNNTDL
target	fold induction
PhoP, residues 12 14 15 18 19 NQCAL (Escherichia coli, UniProt P23836)	3.75
PhoP, residues 12 14 15 18 19 TQAML (Escherichia coli, UniProt P23836)	3.13
PhoP, residues 12 14 15 18 19 LHTVL (Escherichia coli, UniProt P23836)	8.14

A few entries again (study 2):
Strand	E-score
ATCAGCGA	-0.0341
ACGTATTG	0.0936
CGAGAAGC	-0.0888
